# Assay results gathered from unrelated publications.
# Numbers after ± are the reported error.
# Cell line: HT-29
SMILES,read-out,method,time,IC50
CC1=CC(=O)CC(C)(C)[C@H]1CC[C@H](O)CO,cell growth or viability,,,> 10 µM
N#CSCc1ccc(CN2C(=O)C(=O)c3cc(Br)cc(Br)c32)cc1,cell growth or viability,MTS,48 h,~1 µM
CS(=O)(=O)c1ccc(C2=C(c3ccccc3)C(=O)OC2)cc1,cell growth or viability,thymidine uptake,72 h,> 500 µM
CC(C)=CC(=O)[C@@H](O)[C@@H](C)[C@H]1CC[C@@]2(C)[C@@H]3CC[C@H]4C(C)(C)[C@@H](O)CC[C@@]45C[C@@]35CC[C@]12C,cell growth or viability,,,> 10 µM
COc1ccc(/C=C/C(=O)CC2(O)C(=O)Nc3cc(Br)ccc32)cc1 (centres unmarked),cell growth or viability,MTT,24 h,25.3 µM
COc1cc2oc3c(C)c(OC)c(CC=C(C)C)c(O)c3c(=O)c2c(CC=C(C)C)c1OC,cytotoxicity,sulforhodamine B,72 h,> 20 µM
CC(C)=CCC/C(C)=C/CC/C(C)=C/CC/C=C(\C)CC/C=C(\C)CCC=C(C)C,cell growth or viability,resazurin,96 h,8.2 µg/mL
Cc1cnc(NC2CCOCC2)nc1-n1cnc(C(=O)NC(CN)c2cc(F)cc(Cl)c2)c1 (centres unmarked),RSK1 Ser380 phosphorylation,ELISA,,0.007 µM
COc1cc2oc3cc(OC)c(OC)c(CC=C(C)C)c3c(=O)c2c(O)c1CC=C(C)C,cell growth or viability,fluorescence,2 h,0.9 µM
C=C(CC[C@@H](CO)[C@H]1CC[C@@]2(C)[C@@H]3CC[C@H]4[C@H](C)[C@@H](O)CC[C@@]45C[C@@]35CC[C@]12C)C(C)C,cell growth or viability,,,> 10 µM
CC1=C(CC(=O)O)c2cc(F)ccc2/C1=C\c1ccc(S(C)(=O)=O)cc1,cell growth or viability,thymidine uptake,72 h,89 µM
Brc1ccc2c(c1)[I+]c1cc(Br)ccc1-2,oxygen consumption rate,Seahorse,30 min,5.96 ± 2.82 µM
CC1=C(CC(=O)O)c2cc(F)ccc2/C1=C\c1ccc(S(C)(=O)=O)cc1,cell growth or viability,thymidine uptake,,89.4 µM
C[C@H]1[C@H](C)CC[C@]2(C(=O)O)CC[C@]3(C)C(=CC[C@@H]4[C@@]5(C)CC[C@H](O)C(C)(C)[C@@H]5CC[C@]43C)[C@H]12,cell growth or viability,,72 h,> 10 µM

# Some of these lines once more:
SMILES,read-out,method,time,IC50
CC(C)=CC(=O)[C@@H](O)[C@@H](C)[C@H]1CC[C@@]2(C)[C@@H]3CC[C@H]4C(C)(C)[C@@H](O)CC[C@@]45C[C@@]35CC[C@]12C,cell growth or viability,,,> 10 µM
COc1ccc(/C=C/C(=O)CC2(O)C(=O)Nc3cc(Br)ccc32)cc1 (centres unmarked),cell growth or viability,MTT,24 h,25.3 µM
